Measurements from different studies.
Each line is one published result; not all experiments were run side by side.
ABL1 M351T: Tyrosine-protein kinase ABL1 (ABL1, Homo sapiens, UniProt P00519, M351T)

`CCCCC(=O)Nc1ccc(-c2ccc3ncn(CCC)c(=O)c3c2)cn1` has a remaining binding of 100% (Tyrosine-protein kinase ABL1, phosphorylated (ABL1, Homo sapiens, UniProt P00519, F317I); binding, competition with immobilised ligand; 0.5 µM).
With `Cc1cc([C@@H](C)Nc2ccccc2C(=O)O)c2nc(N3CCC(F)(F)CC3)c(C#N)c(=O)n2c1` the remaining binding was 97% (Tyrosine-protein kinase ABL1, phosphorylated (ABL1, Homo sapiens, UniProt P00519, E255K); binding, competition with immobilised ligand; 10 µM).
For `Cc1cc(NC(=O)c2cccc3cc(-c4cccc5[nH]nc(N)c45)ccc23)ccc1F`, “activity vs control” read 98% (ABL1 (Homo sapiens, UniProt P00519, T315I); enzyme activity, inhibitor; 0.1 µM).
`COc1cc(-c2cc(-c3ccc(N4CCNCC4)cc3)cnc2N)cc(OC)c1OC` has an inhibition of 96% (ABL1 M351T; enzyme activity, inhibitor; 1 µM).
`C=CC(=O)N1CCC(COCC(=O)N2CCN(c3nc(-c4cnc(N)nc4C(F)F)nc(N4CCOC[C@@H]4C)n3)CC2)CC1` gave a remaining binding of 76% (Tyrosine-protein kinase ABL1, non-phosphorylated (ABL1, Homo sapiens, UniProt P00519, F317I); binding, competition with immobilised ligand; 1 µM).
With `COc1cc(-c2cncc3c2CN(C)Cc2cc(N4CCNCC4)ccc2-3)cc(OC)c1OC` the remaining activity was 71% (ABL1 M351T; enzyme activity, inhibitor; 1 µM).
For `C1=C/COCc2cc(ccc2OCCN2CCCC2)Nc2nccc(n2)-c2cccc(c2)COC/1`, the remaining binding was 93% (ABL1 (Homo sapiens, UniProt P00519, F317I); binding; 0.1 µM).
`Nc1ncnc2occ(-c3ccc(NC(=O)Nc4cc(C(F)(F)F)ccc4F)cc3)c12` gave a remaining signal of 1.3% (Tyrosine-protein kinase ABL1, phosphorylated (ABL1, Homo sapiens, UniProt P00519, Q252H); cell-free assay, inhibitor; 20 µM).

A few entries again:
`Nc1ncnc2occ(-c3ccc(NC(=O)Nc4cc(C(F)(F)F)ccc4F)cc3)c12` gave a remaining signal of 1.3% (Tyrosine-protein kinase ABL1, phosphorylated (ABL1, Homo sapiens, UniProt P00519, Q252H); cell-free assay, inhibitor; 20 µM).
